Measurements pooled from the literature.
Parts stem from different laboratories: compare values within a part only.

Series 1
Target: Histone acetyltransferase KAT6A, both winged helices, GST fusion (KAT6A, Homo sapiens, UniProt Q92794, residues 1-181)
Technique: protein binding microarray
Molecule type: double-stranded DNA, one strand shown
Matrix: in vitro
Tested at: not given
Notes: 8-mer, flanks averaged, mean of 2 arrays, mostly near background
Reference: not given
Reading: higher = stronger binding
Endpoint: E-score
Construct (chain): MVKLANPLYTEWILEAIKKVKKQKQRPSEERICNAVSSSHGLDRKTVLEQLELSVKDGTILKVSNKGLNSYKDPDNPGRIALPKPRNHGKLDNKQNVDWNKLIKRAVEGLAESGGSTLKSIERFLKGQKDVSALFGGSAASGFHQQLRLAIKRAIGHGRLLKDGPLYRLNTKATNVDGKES
Strand = TACGACTA; result = -0.103
Strand = TTCTAAAA; result = -0.0404
Strand = AAAACCAA; result = 0.0312
Strand = ACCCTATA; result = -0.163
Strand = AATTCGTA; result = -0.049
Strand = CTTGATTC; result = -0.0407

Series 2
Target: Sal-like protein 4, full length isoform B (SALL4, Homo sapiens, UniProt Q9UJQ4-2, residues 1-616)
Technique: universal PBM
Molecule type: double-stranded DNA, one strand shown
Matrix: in vitro
Tested at: not given
Notes: 8-mer, flanks averaged, mean of replicates
Reading: higher = stronger binding
Endpoint: E-score
Residues (chain): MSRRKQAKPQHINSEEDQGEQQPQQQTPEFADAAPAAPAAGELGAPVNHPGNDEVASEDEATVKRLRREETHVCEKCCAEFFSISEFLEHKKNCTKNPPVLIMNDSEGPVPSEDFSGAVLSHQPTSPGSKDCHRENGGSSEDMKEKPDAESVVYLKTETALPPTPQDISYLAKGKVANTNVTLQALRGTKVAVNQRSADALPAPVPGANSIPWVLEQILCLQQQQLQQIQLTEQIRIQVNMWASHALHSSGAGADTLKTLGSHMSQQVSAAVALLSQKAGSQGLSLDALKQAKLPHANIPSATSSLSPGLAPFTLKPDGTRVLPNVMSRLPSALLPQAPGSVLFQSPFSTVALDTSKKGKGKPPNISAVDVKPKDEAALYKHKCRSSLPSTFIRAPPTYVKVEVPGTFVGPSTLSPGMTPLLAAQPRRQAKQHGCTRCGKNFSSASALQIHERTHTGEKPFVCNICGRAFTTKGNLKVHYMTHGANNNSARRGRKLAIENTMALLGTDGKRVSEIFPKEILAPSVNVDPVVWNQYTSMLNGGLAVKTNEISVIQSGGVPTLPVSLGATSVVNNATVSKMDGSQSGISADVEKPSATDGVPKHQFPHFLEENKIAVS
Strand = TAGTTAAA; result = 0.243
Strand = AACTAAAC; result = 0.0527
Strand = AGGTACTG; result = 0.0154
Strand = GAGAACAA; result = 0.104

Series 3
Target: Ras GTPase-activating protein-binding protein 1, RRM domain (G3BP1, Homo sapiens, UniProt Q13283)
Chain of UniProt Q13283 (whole entry, looked up): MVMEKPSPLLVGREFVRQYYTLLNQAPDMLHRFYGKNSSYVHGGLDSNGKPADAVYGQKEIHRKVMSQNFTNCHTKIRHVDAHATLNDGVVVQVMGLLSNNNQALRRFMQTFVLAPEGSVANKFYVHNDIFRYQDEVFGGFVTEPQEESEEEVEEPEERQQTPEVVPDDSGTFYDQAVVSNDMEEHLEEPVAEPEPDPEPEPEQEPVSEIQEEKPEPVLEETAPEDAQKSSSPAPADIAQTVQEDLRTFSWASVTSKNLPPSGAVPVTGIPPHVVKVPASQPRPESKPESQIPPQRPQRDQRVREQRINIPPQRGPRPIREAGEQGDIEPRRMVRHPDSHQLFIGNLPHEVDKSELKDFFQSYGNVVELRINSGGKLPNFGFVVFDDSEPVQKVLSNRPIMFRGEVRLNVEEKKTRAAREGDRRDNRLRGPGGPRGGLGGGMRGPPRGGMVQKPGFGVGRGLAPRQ
Technique: RNA Bind-n-Seq
Molecule type: RNA
Matrix: in vitro
Tested at: 1 µM
Notes: whole 134-nt RNA, ends assumed
Added: 150 mM KCl
Reference: input library
Reading: higher = stronger binding
Endpoint: log2 enrichment
Shared flanks, not repeated: GGGAGUUCUACAGUCCGACGAUC … UGGAAUUCUCGGGUGUCAAGG
Strand = CUCAAGUCCUGUGCUACACAUCGUAUGUACCGAAUCGGCCGGGCCGGGGCCGGGAAAGUAUUAUGUUACGCCGUUCGGAUCUGCACUUCC; result = -0.575
Strand = UCCUCAAGUCCUGUGCUACACAUCGUAUGUACCGAAUCGGUGGGUGGGGUGGAAAGUAUUAUGUUACGCCGUUCGGAUCUGCACUUCCAG; result = -0.142
Strand = UCCUCAAGUCCUGUGCUACACAUCGUAUGUACCGAAUCGGUGGUGGGUGGGAAAGUAUUAUGUUACGCCGUUCGGAUCUGCACUUCCAGC; result = -0.0523
Strand = CAAGUCCUGUGCUACACAUCGUAUGUACCGAAUCGGGGUGGGGAGGGGUUUGGGGAAAGUAUUAUGUUACGCCGUUCGGAUCUGCACUUC; result = 0.828
Strand = GCAGGAAGUAAAAACAAAUGGAAAUGCUUCGGAUAGUGGCAGGGGUGGGGGUUGCUAAGGAAAGGGUAGGAUGGGAGUGGGUAAAGAGUU; result = 1.47

Further values, each from its own experiment
Substance = PhoQ, residues 284 288 289 292 302 303 SMMNNA; target = PhoP, residues 12 14 15 18 19 STWGI (Escherichia coli, UniProt P23836); test = Sort-seq, item: YFP reporter; test system = E. coli; conditions = PhoQ-PhoP variant library, added: 10 µM Mg2+; scale = reference: high Mg2+ state, higher = stronger signaling; endpoint = fold induction; result = 2.2

A few entries again (series 1):
Strand = AATTCGTA; result = -0.049
Strand = CTTGATTC; result = -0.0407
